Measured values pooled from the literature.
Lines come from different studies, so protocols differ. Numbers after ± are the reported error.

SMILES	target or system	test	test system	conditions	endpoint	result
CCCCCCCCCCCCCCCC(=O)N[C@@H](CCC(=O)NCCOCCOCCC(=O)NCCOCCOCCC(=O)NCCCC[C@H](NC(=O)[C@H](CC(=O)O)NC(=O)[C@H](CC(C)C)NC(=O)[C@H](Cc1ccc(O)cc1)NC(=O)[C@H](CCCCN)NC(=O)[C@H](CO)NC(=O)[C@H](Cc1ccc(O)cc1)NC(=O)[C@H](CC(=O)O)NC(=O)[C@H](CO)NC(=O)[C@@H](NC(=O)[C@H](Cc1ccccc1)NC(=O)[C@@H](NC(=O)CNC(=O)[C@H](CCC(N)=O)NC(=O)[C@@H](CO)NC(=O)[C@@H](N)Cc1c[nH]cn1)[C@@H](C)O)[C@@H](C)O)C(=O)N[C@@H](CCCNC(=N)N)C(=O)N[C@@H](CCCNC(=N)N)C(=O)N[C@@H](C)C(=O)N[C@@H](CCC(N)=O)C(=O)N[C@@H](CC(=O)O)C(=O)N[C@@H](Cc1ccccc1)C(=O)N[C@H](C(=O)N[C@@H](CCC(N)=O)C(=O)N[C@@H](Cc1c[nH]c2ccccc12)C(=O)N[C@@H](CC(C)C)C(=O)N[C@@H](CC(C)C)C(=O)N[C@@H](CC(N)=O)C(=O)N[C@H](C(=O)NCC(=O)NCC(=O)N1CCC[C@H]1C(=O)N[C@@H](CO)C(=O)N[C@@H](CO)C(=O)NCC(=O)N[C@@H](C)C(=O)N1CCC[C@H]1C(=O)N1CCC[C@H]1C(=O)N1CCC[C@H]1C(=O)N[C@@H](CO)C(N)=O)[C@@H](C)O)C(C)C)C(=O)O			Sprague-Dawley rat, male	subcutaneous, 20 µg/kg once daily, 14 days	creatinine	22.8 ± 1.8 µmol/L
CNC1C(O)C(NC)C2OC3(O)C(OC(C)C[C@H]3NC(=O)Cc3cscn3)OC2C1O.Cl.Cl (stereo partly drawn)	Mycobacterium tuberculosis		H37Rv Rv1258c knockout, 7H9 broth	7 days	MIC	6.3 µg/mL
CC[C@H](C)[C@H](NC(=O)[C@H](CO)NC(=O)[C@H](Cc1ccc(O)cc1)NC(=O)[C@H](CC(=O)O)NC(=O)[C@H](CO)NC(=O)[C@@H](NC(=O)[C@H](Cc1ccccc1)NC(=O)[C@@H](NC(=O)CNC(=O)[C@H](CCC(=O)O)NC(=O)[C@@H](C)NC(=O)[C@@H](N)Cc1ccc(O)cc1)[C@@H](C)O)[C@@H](C)CC)C(=O)N[C@@H](C)C(=O)N[C@@H](CCSC)C(=O)N[C@@H](CC(=O)O)C(=O)N[C@@H](CCCCN)C(=O)N[C@H](C(=O)N[C@@H](Cc1c[nH]cn1)C(=O)N[C@@H](CCC(N)=O)C(=O)N[C@@H](CCC(N)=O)C(=O)N[C@@H](CC(=O)O)C(=O)N[C@@H](Cc1ccccc1)C(=O)N[C@H](C(=O)N[C@@H](CC(N)=O)C(=O)N[C@@H](Cc1c[nH]c2ccccc12)C(=O)N[C@@H](CC(C)C)C(=O)N[C@@H](CC(C)C)C(=O)N[C@@H](C)C(=O)N[C@@H](CCC(N)=O)C(=O)N[C@@H](CCCCN)C(=O)N1CCC[C@H]1C(=O)N[C@@H](CO)C(=O)N[C@@H](CO)C(=O)NCC(=O)N[C@@H](C)C(=O)N1CCC[C@H]1C(=O)N1CCC[C@H]1C(=O)N1CCC[C@H]1C(=O)N[C@@H](CO)C(N)=O)C(C)C)[C@@H](C)CC			HF-STZ diabetic mouse, plasma	continuous infusion, 100 nmol/kg/day, 4 weeks	PAI-1	3.1 ± 0.2 ng/mL
CC[C@H](C)[C@@H]([C@@H](CC(=O)N1CCC[C@H]1[C@H](OC)[C@@H](C)C(=O)N[C@H](C)[C@@H](O)c1ccccc1)OC)N(C)C(=O)[C@@H](NC(=O)[C@H](C(C)C)N(C)C(=O)OCc1ccc(NC(=O)[C@H](CCCNC(N)=O)NC(=O)[C@@H](NC(=O)Cn2cc(CCC(=O)NCCC(=O)N(C)CC(=O)N(C)CC(=O)N(C)CC(=O)N(C)CC(=O)N(C)CC(=O)N(C)CC(=O)N(C)CC(=O)N(C)CC(=O)N(C)CC(=O)N(C)CC(=O)N[C@@H](C)C(=O)NC3CN(C)Cc4cc5cc(c4)CN(C)CC(C(N)=O)NC(=O)[C@H](C(C)(C)C)NC(=O)[C@H](CC(=O)O)NC(=O)[C@H](Cc4ccc(O)cc4)NC(=O)[C@H](Cc4ccccc4)NC(=O)[C@H](CC(=O)O)NC(=O)[C@H](CCC(=O)O)NC(=O)[C@H](CSC5)NC(=O)[C@@H](C)NC(=O)[C@H](Cc4cccc5ccccc45)NC(=O)[C@H](CCC(=O)O)NC(=O)[C@H](CC(N)=O)NC(=O)[C@@H](C)NC3=O)nn2)C(C)C)cc1)C(C)C (stereo partly drawn)			CD-1 mouse, plasma	intravenous, 3 mg/kg	half-life	42 min
Cc1cc(/C=C/C#N)cc(C)c1Nc1nc(Nc2ccc(C#N)cc2)ncc1N	HIV-1	viral replication, single-round infection	RT mutant G190S		EC50	0.4 ± 0.07 nM
Fc1cccc(CN2CCN(c3ccccc3)CC2)c1OCC1CC1	Mycobacterium tuberculosis	resazurin	rel knockout	168 h, nutrient-starved	IC50	> 64000 nM
C#CCN(Cc1ccc2[nH]cnc(=O)c2c1)c1ccc(C(=O)N[C@@H](CCC(=O)O)C(=O)O)cc1	Mycobacterium tuberculosis		pptH knockout		MIC	> 100 µM
CN[C@@H]1[C@H](O)[C@H](NC)[C@H]2O[C@]3(O)[C@H](O[C@@H]2[C@H]1O)O[C@H](C)C[C@H]3NC(=O)Cc1cc(Cl)ccn1	Mycobacterium tuberculosis				MIC	0.8 µg/mL
CC(C)(C)c1ccc(-c2cncc(-c3nc4ccc5cc(C(=O)O)cc(O)c5c4[nH]3)c2)cc1	Mycobacterium tuberculosis	resazurin	rel knockout	168 h, nutrient-starved	IC50	32000 nM
CNC1C(O)C(NC)C2OC3(O)C(OC(C)C[C@H]3NC(=O)Cc3cc(Cl)ccn3)OC2C1O.Cl.Cl (stereo partly drawn)	Mycobacterium tuberculosis		H37Rv Rv1258c knockout, 7H9 broth	7 days	MIC	1.6 µg/mL
CC(C)c1cc(N)c2cc(NC(=O)C(=O)Nc3ccc4nc(C(C)C)cc(N)c4c3)ccc2n1	Mycobacterium tuberculosis	resazurin	rel knockout	168 h, nutrient-starved	IC50	4000 nM
CC(C)CC(C)N1CCn2cc(C(=O)NCc3ccc(F)cc3F)c(=O)c(O)c2C1=O (stereo not drawn)	human immunodeficiency virus 1	single-round vector infection	integrase R263K		EC50	6.5 ± 1.2 nM
C#CCN(Cc1ccc2nc(N)nc(N)c2c1)c1ccc(C(=O)N[C@@H](CCC(=O)OCC)C(=O)OCC)cc1	Mycobacterium tuberculosis		pptH knockout		MIC	< 0.1 µM
Cc1cc(/C=C/C#N)cc(C)c1-n1cnc2cnc(Nc3ccc(C#N)cc3)nc21	HIV-1	viral replication, single-round infection	RT mutant K103N		EC50	0.9 ± 0.2 nM
CCOC(=O)CC[C@@H](NC(=O)c1ccc(N(C)Cc2ccc3[nH]c(C)nc(=O)c3c2)s1)C(=O)OCC	Mycobacterium tuberculosis		pptH knockout		MIC	> 100 µM
CN[C@@H]1[C@H](O)[C@H](NC)[C@H]2O[C@]3(O)[C@H](O[C@@H]2[C@H]1O)O[C@H](C)C[C@H]3NC(=O)Cc1ccccn1	Mycobacterium tuberculosis				MIC	3.2 µg/mL
COC(=O)[C@@H](CCCNC(=O)OC(C)(C)C)NC(=O)c1ccc(NCc2ccc3nc(N)nc(N)c3c2Cl)cc1	Mycobacterium tuberculosis		pptH knockout		MIC	< 0.1 µM
C=CCNC(=O)N1Cc2ccc(NC(=O)NC3CC3c3ccccc3)cc2C1 (stereo not drawn)	Mycobacterium tuberculosis	resazurin	rel knockout	168 h, nutrient-starved	IC50	> 64000 nM
